{"data": "Assay results pooled from the literature", "Aspartate aminotransferase": "Aspartate aminotransferase (Streptococcus pneumoniae, UniProt Q8DNN5)", "HapB/HapC/HapE/HapX HapX 24-158": "HapB/HapC/HapE/HapX HapX 24-158 (Aspergillus fumigatus)", "saeR full length assumed": "saeR full length assumed (Staphylococcus aureus, UniProt Q2FIT4)", "cssR 1-198": "cssR 1-198 (Corynebacterium glutamicum)", "T1": "cssR 1-198 (Corynebacterium glutamicum); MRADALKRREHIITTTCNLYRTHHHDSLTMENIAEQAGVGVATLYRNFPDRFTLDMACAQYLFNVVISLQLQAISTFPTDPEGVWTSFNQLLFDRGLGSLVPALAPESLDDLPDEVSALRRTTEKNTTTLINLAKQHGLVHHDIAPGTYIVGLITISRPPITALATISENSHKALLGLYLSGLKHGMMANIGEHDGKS", "T2": "rgg3 1-283 (Streptococcus pyogenes); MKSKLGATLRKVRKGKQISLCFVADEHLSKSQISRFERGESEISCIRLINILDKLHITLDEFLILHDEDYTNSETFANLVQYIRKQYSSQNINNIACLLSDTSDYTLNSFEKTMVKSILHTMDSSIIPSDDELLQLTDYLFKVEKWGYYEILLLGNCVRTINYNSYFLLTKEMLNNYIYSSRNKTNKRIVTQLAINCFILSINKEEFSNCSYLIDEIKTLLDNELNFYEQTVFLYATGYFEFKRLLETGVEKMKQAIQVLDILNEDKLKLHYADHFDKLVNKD", "T3": "basR 1-222 (Escherichia coli); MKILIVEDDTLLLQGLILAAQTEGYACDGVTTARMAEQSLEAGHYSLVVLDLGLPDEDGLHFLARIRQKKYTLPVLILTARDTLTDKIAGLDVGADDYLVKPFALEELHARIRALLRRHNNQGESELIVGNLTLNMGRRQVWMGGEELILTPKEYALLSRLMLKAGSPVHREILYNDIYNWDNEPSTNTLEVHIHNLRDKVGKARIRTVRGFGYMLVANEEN", "note": "Compare with care: the assays were run in different laboratories.", "chain of UniProt Q2FIT4 (whole entry, looked up)": "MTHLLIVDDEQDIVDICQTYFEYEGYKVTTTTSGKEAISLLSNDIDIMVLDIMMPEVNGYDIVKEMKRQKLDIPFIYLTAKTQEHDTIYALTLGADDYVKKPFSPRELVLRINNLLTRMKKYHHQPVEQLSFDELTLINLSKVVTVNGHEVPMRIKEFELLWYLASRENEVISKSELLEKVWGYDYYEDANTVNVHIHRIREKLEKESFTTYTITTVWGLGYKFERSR", "chain of UniProt P33768 (whole entry, looked up)": "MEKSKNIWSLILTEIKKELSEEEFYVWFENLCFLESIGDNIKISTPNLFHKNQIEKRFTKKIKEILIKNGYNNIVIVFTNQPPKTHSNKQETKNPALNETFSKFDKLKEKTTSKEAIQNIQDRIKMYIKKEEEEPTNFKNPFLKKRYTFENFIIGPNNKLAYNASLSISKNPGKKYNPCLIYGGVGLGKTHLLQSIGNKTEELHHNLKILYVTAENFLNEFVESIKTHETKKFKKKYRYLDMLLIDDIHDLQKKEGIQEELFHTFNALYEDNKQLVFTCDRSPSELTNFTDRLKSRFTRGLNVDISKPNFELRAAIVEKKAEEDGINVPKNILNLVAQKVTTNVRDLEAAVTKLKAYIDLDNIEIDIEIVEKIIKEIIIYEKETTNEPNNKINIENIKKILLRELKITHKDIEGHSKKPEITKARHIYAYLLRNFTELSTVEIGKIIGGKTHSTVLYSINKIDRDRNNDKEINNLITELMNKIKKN", "chain of UniProt Q45493 (whole entry, looked up)": "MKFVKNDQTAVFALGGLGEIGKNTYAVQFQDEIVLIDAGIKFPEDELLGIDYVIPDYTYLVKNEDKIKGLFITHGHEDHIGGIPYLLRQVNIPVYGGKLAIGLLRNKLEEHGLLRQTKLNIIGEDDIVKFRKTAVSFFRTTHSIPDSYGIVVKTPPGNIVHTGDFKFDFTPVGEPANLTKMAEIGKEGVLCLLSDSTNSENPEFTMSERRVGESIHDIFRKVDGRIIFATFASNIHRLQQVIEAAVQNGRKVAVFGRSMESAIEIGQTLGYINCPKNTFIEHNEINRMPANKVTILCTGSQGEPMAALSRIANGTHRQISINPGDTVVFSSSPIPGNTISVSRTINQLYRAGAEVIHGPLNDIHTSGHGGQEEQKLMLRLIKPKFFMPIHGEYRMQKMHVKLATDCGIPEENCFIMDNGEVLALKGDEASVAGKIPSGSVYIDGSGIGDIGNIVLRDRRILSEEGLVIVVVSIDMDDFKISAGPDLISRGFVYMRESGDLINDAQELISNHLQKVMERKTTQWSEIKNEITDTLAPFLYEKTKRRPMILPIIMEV", "chain of UniProt P60386 (whole entry, looked up)": "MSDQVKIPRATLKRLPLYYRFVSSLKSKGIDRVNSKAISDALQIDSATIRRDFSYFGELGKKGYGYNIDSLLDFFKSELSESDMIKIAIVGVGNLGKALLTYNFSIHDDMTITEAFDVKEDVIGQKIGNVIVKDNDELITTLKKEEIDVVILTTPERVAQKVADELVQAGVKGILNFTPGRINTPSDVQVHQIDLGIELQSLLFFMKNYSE", "chain of UniProt O26057 (whole entry, looked up)": "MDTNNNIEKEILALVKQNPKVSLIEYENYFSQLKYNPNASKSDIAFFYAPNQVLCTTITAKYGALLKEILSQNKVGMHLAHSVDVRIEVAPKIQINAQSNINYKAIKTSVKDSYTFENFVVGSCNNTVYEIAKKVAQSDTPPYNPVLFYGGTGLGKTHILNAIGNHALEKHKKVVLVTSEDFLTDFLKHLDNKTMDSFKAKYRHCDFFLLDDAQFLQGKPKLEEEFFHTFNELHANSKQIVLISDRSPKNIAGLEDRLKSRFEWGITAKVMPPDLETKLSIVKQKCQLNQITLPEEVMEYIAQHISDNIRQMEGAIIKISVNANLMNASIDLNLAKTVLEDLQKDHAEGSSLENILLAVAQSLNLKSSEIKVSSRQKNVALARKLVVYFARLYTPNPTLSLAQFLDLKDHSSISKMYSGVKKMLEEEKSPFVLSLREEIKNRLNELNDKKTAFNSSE", "chain of UniProt Q8IJX8 (whole entry, looked up)": "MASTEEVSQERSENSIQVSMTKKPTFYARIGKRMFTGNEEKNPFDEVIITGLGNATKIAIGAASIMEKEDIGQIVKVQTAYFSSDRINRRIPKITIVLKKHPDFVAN"}
{"Substance": "GCTAGCTAAAAATAACATTACAATAAATCTTATTGACATAAATTGATTTTTTTTATATAAGTAAATTATTGTATTGCGTCC (dsDNA)", "tested on": "dnaA full length assumed (Borreliella burgdorferi, UniProt P33768)", "assay": "competition", "test system": "double-stranded DNA, one strand shown", "conditions": "1.4 µM", "quantity": "binding", "value": "no binding"}
{"Substance": "TTCTAATTGCCTATGACTTTTTTTAGATAATAAATCTCTCATGAATATCTTTCTCTCTTTATAAATTATCGGATTAAACCTCTTGCAATTATACCACAAAGAATAGGTATAGCATGATATAACGACTTTTCCTAAAATCTTTTATTTCGTATAATAACACTACGGAGACAATATATAAACAATTTTCTTATTTTACCGTCTATTGAGGGCGTGAATACAGAATC (dsDNA)", "tested on": "Aspartate aminotransferase", "assay": "hydroxyl radical footprinting", "test system": "double-stranded DNA, one strand shown", "quantity": "binding", "value": "binds"}
{"Substance": "CTGTCTGCCAAAGAGCGTGTCCCTGTTAATAATGTTATGG (dsDNA)", "tested on": "HapB/HapC/HapE/HapX HapX 24-158", "assay": "SPR", "test system": "double-stranded DNA, one strand shown", "conditions": "HapX on preformed CBC:DNA", "quantity": "Kd", "value": "< 100 nM"}
{"Substance": "CAAATTATTCTTTCTTCAATATTAGTTAAGCGATATTTAAACGAAGTTAAGAATTAGTTAATGGCATATTATTTGCCTTCATTTTAAACTTAACTTATC (dsDNA)", "tested on": "saeR full length assumed", "assay": "EMSA", "test system": "double-stranded DNA, one strand shown", "quantity": "binding", "value": "binds"}
{"Substance": "CAAATTCTTTAATTGTTGCTATTATATAATTTTTAAAATTAAAAATATAATCTTTAGACTTGAATTTGATTCTGTATTCACGCCCTCAATAGACGGTAAAATAAGAAAATTGTTTATATATTGTCTCCGTAGTGTTATTATACGAAATAAAAGATTTTAGGAAAAGTCGTTATATCATGCTATACCTATTCTTTGTGGTATAATTGCAAGAGGTTTAATCCG (dsDNA)", "tested on": "Aspartate aminotransferase", "assay": "hydroxyl radical footprinting", "test system": "double-stranded DNA, one strand shown", "quantity": "binding", "value": "binds"}
{"Substance": "AGAAAGATAGGGATGGGATG (dsDNA)", "tested on": "ALBA3 1-107 (Plasmodium falciparum, UniProt Q8IJX8)", "assay": "EMSA", "test system": "double-stranded DNA, one strand shown", "conditions": "apparent, Scatchard", "quantity": "Kd", "value": "87 nM"}
{"Substance": "CCAGCGCAAAGCAGCATGAAAATCCTTTTTTCGCATCCATTAGCTTATTATAAAGCAAGCATTATAGACAAACCCTTAAAAGAAACACCTTAATTTTAAGGCTTCATTCACATTTCATTCACATGTTATTCCTTTTTCATTCACCACTTATTCACGCTATAATAACGCCATGGATACCAACAACAATATTG (dsDNA (Helicobacter pylori); blunt ends)", "tested on": "dnaA full length assumed (Helicobacter pylori, UniProt O26057)", "assay": "SPR", "test system": "double-stranded DNA, one strand shown", "quantity": "binding", "value": "binds"}
{"Substance": "TACTCAAAAAACATTTACTTAAAAATATAAATTCGATTTAATAATTAATTTAAATTTAGTTAATCAATTTTGCATCTATTTTGTTGTAAGCTATATAAAA (dsDNA)", "tested on": "saeR full length assumed", "assay": "EMSA", "test system": "double-stranded DNA, one strand shown", "quantity": "binding", "value": "binds"}
{"Substance": "GAAGTTATTGGGTGACATGGGATCTAACCCTTCTTGAATAGTGAACTGAACAACATTATCTAGATCACATTCTGAATCATGATTCATAAATGAACAAGGGTTCAGATTTTACAATACCCCCATTCCACCCCCTTATATTTAAGTCACCGCAGATCAGCTAAGGTTTTCCCTATGCCCACGCCTTCGCAGCACAAGGACGCTTCAACAGCACAAACCGACAAC (dsDNA (Corynebacterium glutamicum))", "tested on": "T1, cssR 1-198 (Corynebacterium glutamicum)", "assay": "EMSA", "test system": "double-stranded DNA, one strand shown", "quantity": "binding", "value": "no binding"}
{"Substance": "CCACACAAGTTTTTGTACTTGACTACATTTAAGCTAAATTAATTGTACTTATTTAAAAAAAAAATTGCTAGCTAAAAATAACATTACAATAAATCTTATTGACATAAATTGATTTTTTTTATATAAGTAAATTATTG (dsDNA)", "tested on": "dnaA full length assumed (Borreliella burgdorferi, UniProt P33768)", "assay": "competition", "test system": "double-stranded DNA, one strand shown", "conditions": "1.4 µM", "quantity": "binding", "value": "binds"}
{"Substance": "CTAGGGATCCTAAAGGGGTATTAAACGCACTTCTAATAACGATTTTATAGCGCTTCAAAGATATAACACTAATTCATTTTAAATAATAATTAGTTAATGAACGCTTCTGTTAATCTTAGTAAATCAAAACATTGCTACAATTACATCCAACCTTGATTTCGTTATGTCTTCAAGGAAAAACACTTTAAGAATAGGAGCTGCAGCGATGC (dsDNA (Helicobacter pylori); blunt)", "tested on": "mua 1-153 (Helicobacter pylori, UniProt O25538)", "assay": "EMSA", "test system": "double-stranded DNA, one strand shown", "conditions": "with: NiSO4 0.8 mM", "quantity": "binding", "value": "no binding"}
{"Substance": "GATTGGACCAATCACCATGACGGATTGGTAATCCTGCTGA (dsDNA)", "tested on": "HapB/HapC/HapE/HapX HapX 24-158", "assay": "SPR", "test system": "double-stranded DNA, one strand shown", "conditions": "HapX on preformed CBC:DNA", "quantity": "Kd", "value": "< 100 nM"}
{"Substance": "GGCAAUACAUUACAGUGCAUUUCUUUAAUGAGAAAUGCAUAAAAUAAAAAAGACCGAGGUGCUACCAACACCCCGGCUCUGUACAAAAAGUUGCCCAUCAAAGGGCUUGCUCGAUGUGGUUCUAGGUAGGCCUAUCCCUUCAGGUUCUGAGGCUCAAGGGAGGUC (structured RNA)", "tested on": "rnjA full length assumed (Bacillus subtilis, UniProt Q45493)", "assay": "EMSA", "quantity": "binding", "value": "binds"}
{"Substance": "melittin", "assay": "membrane partitioning, ITC enthalpy vs temperature", "test system": "POPC/POPG LUVs 50:50%", "conditions": "concentration not given, 25 to 60 °C", "quantity": "heat capacity change", "value": "-0.58 kcal/mol/K"}
{"Substance": "AAATGTTGTCGGTTTGAATGCTGGTGAAGGACGTGTATTGACGCCTCATGAAGTAAAAGTGATGCGTCATTTAGCAGAACATGGGAAATAATTAAATAAAATATGTATTTATCACAAAGTTTGAGAATTTTTTCACAAAATTTTAGGTTTTTAATAACTGTATGCGCTTTCCTGTGATATAATACTTTTGTAAAGAAAAGCATGTGTGGGAGGTATGACCTGTATGTCGAA (dsDNA)", "tested on": "rex 1-211 (Staphylococcus aureus, UniProt P60386)", "assay": "EMSA", "test system": "double-stranded DNA, one strand shown", "conditions": "with: NAD+", "quantity": "binding", "value": "binds"}
{"Substance": "TTTCCCCAAAGTGGATTGTTTTTAAGCGAAAGGTTATCCACCAACGATAATCAGGATATCCATGATCAATGTAAAAAGCAAAGCTTTATTAACTTTTTTCATGACTGTCTCCTTTCTGATTTTCTATTTTGTACTTGTATTATATAATGGATTTAGCAGATTTTAATTTTTTGTTGTGAAAGTGGGAAAAATG (dsDNA)", "tested on": "T2, rgg3 1-283 (Streptococcus pyogenes)", "assay": "EMSA", "test system": "double-stranded DNA, one strand shown", "quantity": "binding", "value": "binds"}
{"Substance": "GTCAATTCATGTAAAATAATTTAATAAAACGTTAATAAGTGGTTAATTAATATTTAATTAATATTTTTATTTAAAATGTATATAGTAAATGTGTATCTAG (dsDNA)", "tested on": "saeR full length assumed", "assay": "EMSA", "test system": "double-stranded DNA, one strand shown", "quantity": "binding", "value": "binds"}
{"Substance": "TAGATGAAGAAGTTGTTTGCCAATTATTTGTGTCTTACTTTCAAAAAATGTTTTTCATAGATGAAAGTCTCTTTATGAAATGCGTAAAAAAGGATAGTTATGTTGAAAAATCTTACCATCTATTGAGTGATTTTATTGATCAGATTTCAGTCAAGTATCAGATTGAAATTGAGAATAAGGATAATCTGATTTGGCATCTGCATAATACCGCACATCTGTATCGTCAAGAGTTGTTTACTGAGTTTATTTTATTTGATCAAAAAGGGAATACAATCAGGAACT (dsDNA)", "tested on": "Aspartate aminotransferase", "assay": "EMSA", "test system": "double-stranded DNA, one strand shown", "quantity": "binding", "value": "binds"}
{"Substance": "CCGAAAAAGGGTGAATGGGGGGAATTTTCAGAGCTGTCACACCCCCGTTTCCTGAGGGGAATACTTAGATTCCACATAGCGGAATTATCTTGAGTCACCTTTCAAAGCCCAATATGTTCGAAGTCACAAACACTTCAAGGGCTAGACGTATGCAGGTGTTGGGGATTGCTTATCTCAAGGGCAATCACACCCTTCATACGCATCTACAACATCCGTAAAGGAGGACTCCAACAA (dsDNA (Corynebacterium glutamicum))", "tested on": "T1, cssR 1-198 (Corynebacterium glutamicum)", "assay": "EMSA", "test system": "double-stranded DNA, one strand shown", "quantity": "binding", "value": "no binding"}
{"Substance": "GATGAAACCCCGCTTTTTTTATTGATCGCACACCTGACAGCTGCCTCTAAAATAGAAGCACCAGAAGTACTGACAGATGTTGCACTGCTGTGTGTAGTAATAAATCAGCCCTAAATGGGTAAAATATAAAACTAATGGATTACATCTGATTTCAATCTAGCCATTAC (dsDNA (Escherichia coli))", "tested on": "T3, basR 1-222 (Escherichia coli)", "assay": "EMSA", "test system": "double-stranded DNA, one strand shown", "quantity": "binding", "value": "binds"}
{"Substance": "TCACAAATCAATAACCATGTTTTAAATTTTTCAAGCTACAATCATTAATTATTTATTAACTCAAATATTTAATAATCAGTTAATGGCATTCTGTTAATT (dsDNA)", "tested on": "saeR full length assumed", "assay": "EMSA", "test system": "double-stranded DNA, one strand shown", "quantity": "binding", "value": "binds"}
{"note": "Some of these lines once more:"}
{"Substance": "GTCAATTCATGTAAAATAATTTAATAAAACGTTAATAAGTGGTTAATTAATATTTAATTAATATTTTTATTTAAAATGTATATAGTAAATGTGTATCTAG (dsDNA)", "tested on": "saeR full length assumed", "assay": "EMSA", "test system": "double-stranded DNA, one strand shown", "quantity": "binding", "value": "binds"}
{"Substance": "TAGATGAAGAAGTTGTTTGCCAATTATTTGTGTCTTACTTTCAAAAAATGTTTTTCATAGATGAAAGTCTCTTTATGAAATGCGTAAAAAAGGATAGTTATGTTGAAAAATCTTACCATCTATTGAGTGATTTTATTGATCAGATTTCAGTCAAGTATCAGATTGAAATTGAGAATAAGGATAATCTGATTTGGCATCTGCATAATACCGCACATCTGTATCGTCAAGAGTTGTTTACTGAGTTTATTTTATTTGATCAAAAAGGGAATACAATCAGGAACT (dsDNA)", "tested on": "Aspartate aminotransferase", "assay": "EMSA", "test system": "double-stranded DNA, one strand shown", "quantity": "binding", "value": "binds"}
{"Substance": "CCGAAAAAGGGTGAATGGGGGGAATTTTCAGAGCTGTCACACCCCCGTTTCCTGAGGGGAATACTTAGATTCCACATAGCGGAATTATCTTGAGTCACCTTTCAAAGCCCAATATGTTCGAAGTCACAAACACTTCAAGGGCTAGACGTATGCAGGTGTTGGGGATTGCTTATCTCAAGGGCAATCACACCCTTCATACGCATCTACAACATCCGTAAAGGAGGACTCCAACAA (dsDNA (Corynebacterium glutamicum))", "tested on": "T1, cssR 1-198 (Corynebacterium glutamicum)", "assay": "EMSA", "test system": "double-stranded DNA, one strand shown", "quantity": "binding", "value": "no binding"}
